# Experimental data collected from several papers.
# Lines come from different studies, so protocols differ. “And” joins repeats or separate records; there may be more than shown. Numbers after ± are the reported error.
SMILES,assay,system,setting,half-life
Cc1[nH]c(/C=C2\C(=O)Nc3ccccc32)c(C)c1CCC(=O)O,,human patients,"oral, 500 mg/m^2 twice daily, after meal, dose 55",2.96 ± 0.718 h
C=CC(=O)N1CCC(CNc2ncnc(N)c2-c2ccc(Oc3ccccc3)cc2)CC1,,"human, plasma","25 to 200 mg once daily, multiple dose",1.6 to 3.6 h
CC(=O)c1c(C)c2cnc(Nc3ccc(N4CCNCC4)cn3)nc2n(C2CCCC2)c1=O,,human,"oral, 75 mg/m^2 repeated doses, day 21",15.8 ± 7 h
CCn1c(=O)c2c(nc(/C=C/c3ccc(OC)c(OC)c3)n2C)n(CC)c1=O,,"healthy human, plasma","oral, 40 mg single dose, arithmetic mean, with: rifampin 600 mg/day steady state",31.5 h
COc1cc(Nc2ncc3c(n2)-c2ccc(Cl)cc2C(c2c(F)cccc2OC)=NC3)ccc1C(=O)O,,"human, plasma","oral, 50 mg twice daily, day 7, steady state",21 h
COCCCCn1c(C(=O)N(CC(C)C)[C@@H]2CNC[C@H](C(=O)N3CCOCC3)C2)nc2ccccc21,,"non-elderly human, plasma","oral, 80 mg once daily, day 1",10.3 h
CNC(=O)c1ccc(-c2cnc3ncc(Cc4ccc5ncccc5c4)n3n2)cc1F,,"healthy human subjects, plasma","oral, 200 mg, arithmetic mean, alone",9.29 h
NC(=O)N1CCC(CC(=O)N2CCC([C@H]3c4ncc(Br)cc4CCc4cc(Cl)cc(Br)c43)CC2)CC1,,"human, plasma","oral, 200 mg twice daily, cycle 1 day 15, multiple dose, with: gemcitabine 600 mg/m2",5.32 h
O=C(/C=C/c1cccc(S(=O)(=O)Nc2ccccc2)c1)NO,,"human moderate liver dysfunction, plasma","intravenous, 400 mg/m^2, 30 min infusion, cycle 1 day -7",2.4 h
CC[C@H](C)[C@@H]1NC(=O)[C@H](CCCNC(=N)N)NC(=O)[C@H](CC(=O)O)NC(=O)[C@H](CC(C)C)NC(=O)[C@H](CCCCN)NC(=O)[C@H](CC(C)C)NC(=O)CNC(=O)[C@H](Cc2ccccc2)NC(=O)[C@@H](NC(=O)CNC(=O)[C@H](CCCCN)NC(=O)[C@H](CO)NC(=O)[C@H](CC(C)C)NC(=O)CNC(=O)[C@H](CCCCN)NC(=O)[C@H](CCCCN)NC(=O)[C@H](CC(N)=O)NC(=O)[C@H](C)NC(=O)CNC(=O)[C@H](CCCCN)NC(=O)[C@H](Cc2ccc(O)cc2)NC(=O)[C@H](CCCCN)NC(=O)[C@H](CCCNC(=N)N)NC(=O)[C@H](C)NC(=O)[C@H](CC(N)=O)NC(=O)[C@@H]2CCCN2C(=O)[C@H](Cc2c[nH]cn2)NC(=O)[C@H](CCC(=O)O)NC(=O)[C@H](CCC(N)=O)NC(=O)CNC(=O)[C@@H]2CCCN2)CSSC[C@@H](C(=O)O)NC(=O)CNC(=O)[C@H](CC(C)C)NC(=O)CNC(=O)[C@H](CO)NC(=O)[C@H](CCSC)NC(=O)[C@H](CO)NC(=O)CNC1=O,,"human, plasma","subcutaneous, 15 µg/kg once daily, week 52",0.465 h
Nc1nc2c(c(=O)[nH]1)N(C=O)C(CNc1ccc(C(=O)N[C@@H](CCC(=O)O)C(=O)O)cc1)CN2 (stereo partly drawn),measured: 5-formyltetrahydrofolate,"human, plasma","intravenous, 214 nmol",0.593 h and 0.376 h and 0.262 h and 0.3 h
C=CC[C@@H]1/C=C(\C)C[C@H](C)C[C@H](OC)[C@H]2O[C@@](O)(C(=O)C(=O)N3CCCC[C@H]3C(=O)O[C@H](/C(C)=C/[C@@H]3CC[C@@H](O)[C@H](OC)C3)[C@H](C)[C@@H](O)CC1=O)[C@H](C)C[C@@H]2OC,,"healthy humans, whole blood","oral, 5 mg single dose",40 h
CC(C)[C@H](N)C(=O)NCCCS(=O)(=O)O,,"human, both sexes, plasma","oral, 100 mg capsule",0.7 ± 0.11 h
O=C(c1cccnc1-c1ccncc1)N1CCC(O)(Cc2ccccc2)CC1,,"healthy human, plasma","oral, 300 mg once daily, day 1, arithmetic mean",4.44 h
CN1C(=O)[C@@H](NC(=O)c2nnc(Cc3ccccc3)[nH]2)COc2ccccc21,,"human male, plasma","oral, 60 mg twice daily, day 1",1.74 h
CC(C)(/C=C(\C#N)C(=O)N1CCC[C@@H](n2nc(-c3ccc(Oc4ccccc4)cc3F)c3c(N)ncnc32)C1)N1CCN(C2COC2)CC1,,"human, plasma","oral, 100 mg single dose, median",1.6 h
O=C(CCCCCCC(=O)Nc1ccccc1)NO,,"human, cycle 1 day 12, steady state, plasma","oral, 400 mg, with: bortezomib",1.9 ± 1 h
CCCC[C@H](NC(C)=O)C(=O)N[C@H]1CCC(=O)NC[C@@H](C(=O)N[C@@H](Cc2c[nH]c3ccccc23)C(N)=O)NC(=O)[C@H](CCCNC(=N)N)NC(=O)[C@@H](Cc2ccccc2)NC(=O)[C@H](Cc2c[nH]cn2)NC1=O,,"healthy human volunteers, plasma","subcutaneous, 3.0 mg once daily, day 1",9.7 h
